# Measured values pooled from the literature.
# Compare with care: the assays were run in different laboratories. Several values in a cell are separate wells, animals, samples, runs or records. Numbers after ± are the reported error.
Compound,test,test system,setting,scale,quantity,result
Cc1cc(Nc2ccc(S(F)(F)(F)(F)F)cc2)n2nc(C(C)(F)F)nc2n1,,Plasmodium vivax malaria patients,"oral, 400 mg",,adverse event Fatigue,0%
COc1ccc(/S(=N/C(=O)C(C)(C)C)c2ccc(C)cc2)cc1 (stereo not shown),,human liver microsomes,,reference: hepatic blood flow,metabolic stability,44%
CCN1CCN(Cc2ccc(NC(=O)c3ccc(C)c(NC(=O)c4cncc(-c5cccs5)c4)c3)cc2C(F)(F)F)CC1,LC-MS/MS,"C57BL/6 mouse, plasma","intraperitoneal, 20 mg/kg single dose, 2 h",,plasma concentration,357 ng/mL and 285 ng/mL and 288 ng/mL
O=C(Nc1nc2cccc(-c3ccc(CN4CCS(=O)(=O)CC4)cc3)n2n1)C1CC1,population PK model,human,"oral, SIR median",,slower absorption mixture fraction,0.807
O=C(O)CCC(=O)O.[2H]C([2H])([2H])Oc1cc(C)c2[nH]ccc2c1CN1CC[C@@H](C2CC2)C[C@H]1c1ccc(C(=O)O)cc1,multiple ascending dose,healthy Chinese subjects,125 mg twice daily,,subjects with elevated AST TEAE,0%
Cc1cc(NC2CCN(C(=O)OC3CCN(C(=O)/C=C/CN(C)C)C3)CC2)n2ncc(C(C)C)c2n1 (stereo not shown),"Phase I dose escalation CTCAE v4.0, measured: decreased appetite",patients with advanced solid tumours,"dose not given, Total dosing any grade",,patients with adverse event,17%
CN1CCN(C(=O)c2ccc3cc(CCNc4ccnc5ccc(C#N)cc45)ccc3c2)CC1,,"female BALB/c mouse, CT26 tumour, tumour and blood","oral, 100 mg/kg",reference: tumour over blood,tissue/plasma ratio,~40
C[C@H]1C=C(Cc2ccccc2)C(=O)O1,,"Staffordshire loam sediment, aerobic dark",20 °C,,DT50 whole system,8.77 days
CC(C)(C(=O)N1CCOc2c(C#N)cncc2C1)C(F)F,,"human, both sexes","oral, 30 mg single dose",,subjects with investigations TEAE,0%
Cc1nc2ccc(OCc3ccc(C(F)(F)F)cc3)cc2[nH]1,,"Balb/c mouse, male, brain","intravenous, 1 mg/kg, 3 h",reference: tissue over plasma,tissue/plasma ratio,3.2 ± 0.5
C[C@@H](N)C1CCN(S(=O)(=O)c2cccc3cnccc23)CC1,,healthy volunteers,"75 mg, fasted",,participants with nausea,0%
OC[C@H]1O[C@@H](c2ccc(Cl)c(Cc3ccc(O[C@H]4CCOC4)cc3)c2)[C@H](O)[C@@H](O)[C@@H]1O,,"Japanese type 1 diabetes patients, blood","2.5 mg, day 28",reference: baseline,change in Triglycerides,-5.62 mg/dL
Cc1c(C(=O)O)ccc2c3n(nc12)[C@@H]1[C@H](C3)N(CC2CC2)[C@@]2(C(=O)Nc3cc(Cl)ccc32)[C@H]1c1cccc(Cl)c1F,,"female BALB/c nude mice, plasma","oral, 1 mg/kg twice daily, 31 h, SJSA-1 tumour-bearing",,plasma concentration,145 nM and 296 nM and 482 nM and 157 nM and 338 nM
COc1cc2c(cc1OC)C(=O)C(CC1CCN(Cc3ccccc3)CC1)C2 (stereo not shown),,human subjects,unit not given,reference: placebo,LSEQ awake following sleep,3.29
CC[C@@H]([C@H](C)O)n1ncn(-c2ccc(N3CCN(c4ccc(OC[C@@H]5CO[C@@](Cn6cncn6)(c6ccc(F)cc6F)C5)cc4)CC3)cc2)c1=O,,rat plasma,"2 ng/mL, 21 days, -80 °C",reference: nominal concentration,stability relative error,-0.7%
C=CC(=O)Nc1cc(Nc2nccc(-c3cn(C)c4ccccc34)n2)c(OC)cc1N(C)CCN(C)C,storage stability,human dried blood spots,"5 h, on ice, low QC level",,recovery,90.2%
CNc1ccc(-c2nc3ccc(O)cc3s2)cc1 [carbon-11 labelled],ex vivo biodistribution,"B6SJL mouse, normal, bone","intravenous, 30 min",,SUV,0.184 ± 0.042
C[C@@H]1CCO[C@H]2Cn3cc(C(=O)NCc4ccc(F)cc4F)c(=O)c(O)c3C(=O)N12,"population PK, post-hoc","children, 25 to <30 kg, plasma","oral, 25 mg film-coated tablet, steady state, geometric mean",,AUC(0-24),37700 ng·h/mL
CC(C)C[C@H](NC(=O)[C@H](CC(C)C)NC(=O)[C@H](Cc1c[nH]c2ccccc12)NC(=O)[C@H](CCC(=O)O)NC(=O)[C@@H](NC(=O)[C@H](Cc1ccccc1)NC(=O)[C@H](CCC(=O)O)NC(=O)[C@H](CCCCNC(=O)COCCOCCNC(=O)COCCOCCNC(=O)CC[C@H](NC(=O)CCCCCCCCCCCCCCCCCCC(=O)O)C(=O)O)NC(=O)[C@H](C)NC(=O)[C@H](CCCCN)NC(=O)[C@H](CCCCN)NC(=O)[C@H](CCC(=O)O)NC(=O)[C@H](CC(=O)O)NC(=O)[C@H](CC(C)C)NC(=O)[C@H](Cc1ccc(O)cc1)NC(=O)[C@H](CCCCN)NC(=O)[C@H](CO)NC(=O)[C@H](Cc1ccc(O)cc1)NC(=O)[C@H](CC(=O)O)NC(=O)[C@H](CO)NC(=O)[C@@H](NC(=O)[C@H](Cc1ccccc1)NC(=O)[C@@H](NC(=O)CNC(=O)[C@H](CCC(N)=O)NC(=O)C(C)(C)NC(=O)[C@@H](N)Cc1c[nH]cn1)[C@@H](C)O)[C@@H](C)O)C(C)C)C(=O)N[C@@H](CCC(=O)O)C(=O)NCC(=O)NCC(=O)N1CCC[C@H]1C(=O)N[C@@H](CO)C(=O)N[C@@H](CO)C(=O)NCC(N)=O,,"human, plasma","subcutaneous, 16 mg once weekly, week 20, median",,"tmax,ss",12 h
Cc1cccc(CNC(=O)c2cn(CCNC(=O)c3ccccc3S)c3cc4c(cc3c2=O)OC(F)(F)O4)n1,,"Sprague-Dawley rat, male, plasma","intramuscular, 10 mg/kg of parent drug",,bioavailability,49.6 ± 8%
COc1ccc(C[C@@H](C)[C@@H](C)Cc2ccc(OC)c(OC)c2)cc1OC,,"beagle dog, male, plasma","oral, 1000 mg/kg/day, day 1",,AUC(0-t),34500 ± 11400 ng·h/mL
CC[C@@H]1C=CC(=O)O[C@@H]1C[C@@H](O)[C@H](C)[C@H](OC)[C@@H](C)Cc1ccccc1,mass spectrometry,human liver microsomes,concentration not given,,number of metabolites,17
CC#CC(=O)N1CC[C@@H](n2c(=O)n(-c3ccc(Oc4ccccc4)cc3)c3c(N)ncnc32)C1,,"human, fasting, plasma","oral, 160 mg once daily, cycle 1 day 1",,AUC(0-24h),3290 ± 555 ng·h/mL
O=C(Nc1nc2cccc(-c3ccc(CN4CCS(=O)(=O)CC4)cc3)n2n1)C1CC1,measured: immune system disorders,human rheumatoid arthritis patients,"oral, 75 mg once daily, 4 weeks, regardless of relatedness",,treatment-emergent adverse events,0%
O=C1NCCc2nc(OCc3cccc(F)c3)ccc21,measured: tail pinch,Sprague-Dawley rat male,"oral, 100 mg/kg, 0 min","reference: baseline, direction not given",Irwin test score,0
C[C@@H](Oc1ccc(S(C)(=O)=O)cc1C(=O)N1C[C@@H]2C[C@]2(c2cc(C(F)(F)F)on2)C1)C(F)(F)F,,"young humans, plasma","oral, 75 mg once daily, multiple dose, geometric mean",,Vz/F at steady state,489 L
NC[C@@]1(CC(=O)O)[C@@H]2CC[C@H]3C[C@@H]2[C@@H]1C3,,"human, severe renal impairment, urine","oral, 20 mg single dose",,cumulative amount excreted,11.8 ± 2.59 mg
CC[C@H](C)[C@H](NC(=O)[C@H](Cc1ccccc1)NC(=O)[C@H](CCC(=O)O)NC(=O)[C@H](CCCCNC(=O)COCCOCCNC(=O)COCCOCCNC(=O)CC[C@H](NC(=O)CCCCCCCCCCCCCCCCC(=O)O)C(=O)O)NC(=O)[C@H](C)NC(=O)[C@H](C)NC(=O)[C@H](CCC(N)=O)NC(=O)CNC(=O)[C@H](CCC(=O)O)NC(=O)[C@H](CC(C)C)NC(=O)[C@H](Cc1ccc(O)cc1)NC(=O)[C@H](CO)NC(=O)[C@H](CO)NC(=O)[C@@H](NC(=O)[C@H](CC(=O)O)NC(=O)[C@H](CO)NC(=O)[C@@H](NC(=O)[C@H](Cc1ccccc1)NC(=O)[C@@H](NC(=O)CNC(=O)[C@H](CCC(=O)O)NC(=O)C(C)(C)NC(=O)[C@@H](N)Cc1cnc[nH]1)[C@@H](C)O)[C@@H](C)O)C(C)C)C(=O)N[C@@H](C)C(=O)N[C@@H](Cc1c[nH]c2ccccc12)C(=O)N[C@@H](CC(C)C)C(=O)N[C@H](C(=O)N[C@@H](CCCNC(=N)N)C(=O)NCC(=O)N[C@@H](CCCNC(=N)N)C(=O)NCC(=O)O)C(C)C,12-lead Holter ECG,healthy humans,"subcutaneous, 1.5 mg once weekly, 18 h, steady state",reference: placebo,QTcB change from baseline,9 ms
CCN1/C(=C/C(C)=O)Sc2ccc(F)cc21,,cynomolgus monkey,"oral, 30 mg/kg, 24 h post-dose",,PR interval,90 ± 4 ms
CNCc1ccc(-c2[nH]c3cc(F)cc4c3c2CCNC4=O)cc1,,human patients,"oral, 600 mg twice daily, grade 2",,malignant neoplasm progression incidence,0%
CC(C)n1c(Nc2cccnc2)nc2cnc(Nc3ccc(N4CCN(C)CC4)cc3)nc21,measured: platelet count decreased,"healthy human, male","oral, dose not given, CTCAE grade 1-3",,subjects with TEAE,2.4%
O=C(COc1ccc(Cl)cc1)NC12CC(c3nnc([C@H]4C[C@@H](OC(F)(F)F)C4)o3)(C1)C2,,human both sexes,"oral, 200 mg once daily, 14 days",,participants maximum mild TEAE,57.1%
NS(=O)(=O)OC[C@@H]1C[C@@H](n2ccc3c(N[C@H]4CCc5ccccc54)ncnc32)C[C@@H]1O,"LC-MS/MS, non-compartmental","human, plasma","intravenous, all dose levels, cycle 1 day 1, median",,AUC(0-24h),1490 ng·h/mL
O=C1CCc2ccc(OCCCCN3CCN(c4cccc(Cl)c4Cl)CC3)cc2N1,measured: Rigidity,"genotyped patients, CYP2D6 normal metabolizers","dose not given, long-acting oral or depot",,adverse event incidence,4.1%
CC(C)(C)NCC(O)c1cc(O)cc(O)c1 (stereo not shown),equilibrium dialysis,"rat, lung homogenate",,,fraction unbound,0.71
CN1CCN(C(=O)[C@H](CCCN[C@@H]2C[C@H]2c2ccc(F)cc2)NC(=O)c2ccc(-n3ccnn3)cc2)CC1,,"NOD/SCID mouse MV4-11 xenograft, subcutaneous tumour","oral, 7.5 mg/kg/day, 24 h",,tumour concentration,1200 ± 450 nM
COc1ccnc(C(=O)N[C@H]2COC(=O)[C@H](Cc3ccccc3)[C@@H](O)[C@H](C)OC2=O)c1O,aerobic dark soil incubation,clay soil,"20 °C, persistence endpoint",,DT50,7.33 days
CCCCCCCOc1ccc(CCC(N)(CO)CO)cc1C(F)(F)F.Cl,,healthy men,"oral, 0.75 mg, day 1",,renal clearance,0.199 mL/min
C=CCN1CC(=O)N2[C@@H](Cc3ccc(O)cc3F)C(=O)N(Cc3cccc(N4CC(N5CCN(CC)CC5)C4)n3)C[C@@H]2N1C(=O)NCc1ccccc1,,advanced solid tumour patients,"45 mg twice daily, treatment-related, any grade",,patients with ALT increased,0%
CCNC(=O)OC1CCN(c2nncc3cc(OC)c(OC)cc23)CC1,equilibrium dialysis,"Sprague-Dawley rat, plasma",,,fraction unbound,0.169
C[C@H]1Oc2cc(cnc2N)-c2c(nn(C)c2C#N)CN(C)C(=O)c2ccc(F)cc21,population PK,"healthy participants and patients, plasma","oral, 100 mg, median, single dose",,clearance,148 mL/min
CO[C@@H]1[C@H](OC(=O)N2CC(CCN3CCOCC3)C2)CC[C@]2(CO2)[C@H]1[C@@]1(C)O[C@@H]1CC=C(C)C,,humans,"subcutaneous, 1.8 mg twice weekly for 4 weeks, day 28",reference: baseline,heart rate,0 ± 10.3 beats/min
CC[C@@H]1CN(C(=O)NCC(F)(F)F)C[C@@H]1c1cnc2cnc3[nH]ccc3n12,,"healthy subjects, plasma","oral, extended-release formulation, population PK model",,zero-order absorption duration (D2),6.11 h

# Repeated from above:
Compound,test,test system,setting,scale,quantity,result
CC[C@@H]([C@H](C)O)n1ncn(-c2ccc(N3CCN(c4ccc(OC[C@@H]5CO[C@@](Cn6cncn6)(c6ccc(F)cc6F)C5)cc4)CC3)cc2)c1=O,,rat plasma,"2 ng/mL, 21 days, -80 °C",reference: nominal concentration,stability relative error,-0.7%
COc1ccnc(C(=O)N[C@H]2COC(=O)[C@H](Cc3ccccc3)[C@@H](O)[C@H](C)OC2=O)c1O,aerobic dark soil incubation,clay soil,"20 °C, persistence endpoint",,DT50,7.33 days
CNc1ccc(-c2nc3ccc(O)cc3s2)cc1 [carbon-11 labelled],ex vivo biodistribution,"B6SJL mouse, normal, bone","intravenous, 30 min",,SUV,0.184 ± 0.042
